Results collected from several papers.
Each numbered part is a random draw from the data of one study; scales do not carry over between parts. Changes are numbered by the printed parent chain.

Sample 1 — method: RNA Bind-n-Seq; molecule type: RNA; sample: in vitro; tested at: 365 nM; relative to: no-protein control; direction: higher = stronger binding
Target: RNA binding protein fox-1 homolog 2, RRM domain, GST-SBP tag (RBFOX2, Homo sapiens, UniProt O43251-10, residues 100-194)
Notes: natural RNA segment, single round, ends assumed
Constant ends, left off below: GGGAGUUCUACAGUCCGACGAUC … UGGAAUUCUCGGGUGCCAA
Residues (chain): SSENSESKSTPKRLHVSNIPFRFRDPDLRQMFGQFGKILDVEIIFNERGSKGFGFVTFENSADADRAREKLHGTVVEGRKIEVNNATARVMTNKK
| Strand | RBNS enrichment (R) |
| --- | --- |
| UUCCAUUUUUUCUUACAAUUCUUCAGGGAACUUACCUGCAUUAAGUGAGGUUAAAUGCAUUCAGGAGGUUGUUUGUUUCUUCUAUCUAGUUUUAGAAUAAUAUUUCUUCG | 0.55 |
| GCAAAGUUUGUCUUGACAGUUGAAGGCCUCGCUUAGUUGUACUGGAUUCUCAGGGAGCCCUCUGUGGCCUUUUGCUUUGCGUGCUGUUUCCCUUGUACCAGAGGGCGGCA | 0.487 |
| GCAACUAUGAAUGAAAACAAAACACCACAAAACAGACUUCACUAACACAGAAAAACAGAAACUGAGUGUGAGAGUUGUGAAAUACAAGGAAAUGCAGUAAAGCCAGGGAA | 1.77 |
| UACACUGAGGCUUUAAAAACACAAGGUCCCCCAAGGCUUCCUAGAAAUUGAAAUCUUUGCCUAGGCAGAGAAAUUGACCUAUGGUGGCUUAUUUUAGUCUUUUAUAAAUA | 0.235 |
| ACCUAAAUGAAUUUCAUGAUUAGAGGUGCUCCCACCUGCCAAAUAAUCCCGCCACAAAUAUGCAAAUAUUGCAAAAUCAAAAAUAAUUCUGAAAUUAUUCUGAAACACUU | 0.552 |
| AAUUUAAUGUUUUGUAGUGAUGAAUAUGAAAAUGCCUGUCAUCUUUAGAUCAUUGAAAGGUUAACUAACAUGAGAAUUUCAGAGCAAAUUCCAAUACUCUUUUAAAAAGC | 0.941 |
| UUGCUUUUGAUCUUGUCAAAAAACUGAAUAGACCCCAGUUUCGGGAAGGUGUGUGAGCAGUGCCAUGACUCUGCCCCUUACCUAAUCCCACAUCUCUCUAAUGAUAAGAC | 0.641 |
| CCUGAAGGGUCUACACCCUCGGCUCACCUAAGUGCCCUGUGCUGGUUGCCAGGCGCAGAGGGGAGGCCAGCCCUGCCCUCAGGACCUGCCUGACCUGCCAGUGAUGCCAA | 0.235 |
| CACCGAGUCACCUGGUGAGCCUCAGGCUGGCACACCGAAGUUGUGCCGUGCUUACGUUAUUUAUUAGCUGUAGCCAUUUCUGUCUUGGCUCUCACUUCCUCUGCCCUUCC | 0.419 |
| AAGUUGGGCUCAUCUUCCAGGGAGCAAACCUAAAGCUGGCAGUCAGCCGCCCUGGCUAGAGGCCUGCAGUGGAUGAGCGCAAAGUGCCCGGCCACAGCCCCCUCCCUUUA | 0.21 |
| UGCUACAUCCCUACCCCAAGGGGCUUGGUCAAGGUGCCUGUUCCUGGCUCUCUGGCUGCAUGUGAUAAGCCAUGCUCCCCUCCCCUGCCUUUCUUCACAUUCCCACUCCC | 7.8 |
| AAACAGCGAUUUAAAUUGUAUUGAACAGGGCAUAUAAAAUGCAUUCUGUACCCUGAUCUGGCAUAUAGCUUCAAAACUGCAGUGGCGAGUGUCCAUCUCUUAGUUAGCUA | 0.298 |

Sample 2 — method: DHFR PCA, deep sequencing; sample: yeast; added: (+)-ABA 0.11 µM; relative to: wild-type fitted maximum; direction: higher = stronger binding
Target: ABI1, truncated, D143A, DHFR fusion (Arabidopsis thaliana)
Notes: methotrexate growth selection, single substitutions
Starting sequence: PYL1, truncated, DHFR fusion (Arabidopsis thaliana); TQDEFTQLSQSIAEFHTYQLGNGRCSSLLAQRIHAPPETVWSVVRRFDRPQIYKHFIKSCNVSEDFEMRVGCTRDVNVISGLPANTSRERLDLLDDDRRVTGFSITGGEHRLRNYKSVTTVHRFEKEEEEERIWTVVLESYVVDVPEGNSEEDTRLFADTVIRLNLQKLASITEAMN
| Change | relative binding score |
| --- | --- |
| Q167L | 26.1% |
| L93S | -0.544% |
| N165D | 15.3% |
| R90I | -2.39% |
| E4D | 22.9% |
| E14C | 0.0368% |
| E131S | 48.4% |
| R111A | 2.26% |
| T101V | 37.3% |
| R88L | 14.2% |
| S59M | -5.06% |
| W41C | 0.484% |
| V145K | -7.47% |
| T73V | 49.6% |
| I172Q | -14.1% |
| V118S | -3.32% |
| D75I | 42.6% |
| R49E | 14.7% |
| L94Y | -1.45% |
| M68K | -6.51% |
| R24E | 14.2% |
| F15C | 0.0313% |

Sample 3 — method: protein binding microarray; molecule type: double-stranded DNA, one strand shown; sample: in vitro; tested at: not given; relative to: not given; direction: higher = stronger binding
Target: Histone acetyltransferase KAT6A, winged helix 1, GST fusion (KAT6A, Homo sapiens, UniProt Q92794, residues 1-85)
Notes: 8-mer, flanks averaged, mean of 2 arrays, mostly near background
Residues (chain): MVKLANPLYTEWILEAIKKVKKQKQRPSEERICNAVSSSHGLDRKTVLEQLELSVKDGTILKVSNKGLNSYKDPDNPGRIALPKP
| Strand | E-score |
| --- | --- |
| GTTACAAA | -0.071 |
| ACTAGGCT | -0.108 |
| ACTACATA | -0.284 |
| CTTTACCA | -0.185 |
| TACGCATA | 0.207 |
| CGGTGCCC | 0.25 |
| AATATTGA | -0.0588 |
| GGCCACCA | -0.0222 |
| GCAATAAC | -0.00732 |
| ACTCGTTC | -0.228 |
| TGCCGGCA | 0.409 |
| ATATTTCA | -0.227 |
| AAAGTCAT | -0.281 |
| GACTACTC | 0.136 |
| CCTCATCC | -0.0952 |
| AGACGCTA | 0.16 |
| GACGATAC | 0.0334 |
| AAGAGCTC | -0.07 |
| TCTTCGAA | 0.018 |
| GCAAGCAC | -0.0168 |
| ACAATTCA | -0.167 |
| GCCGAGGA | 0.157 |
| GAGCCTAC | -0.143 |
| GGTGGAAC | -0.0321 |
| CTTTCGGC | 0.00564 |

Sample 4 — method: EMSA with sequencing; molecule type: double-stranded DNA, one strand shown; sample: in vitro; tested at: 10 and 20 nM; relative to: negative control set to 0; direction: higher = stronger binding
Target: Hepatocyte nuclear factor 3-alpha (Foxa1, Mus musculus, UniProt P35582, residues 1-468, full length assumed)
UniProt P35582, sequence (whole entry, looked up): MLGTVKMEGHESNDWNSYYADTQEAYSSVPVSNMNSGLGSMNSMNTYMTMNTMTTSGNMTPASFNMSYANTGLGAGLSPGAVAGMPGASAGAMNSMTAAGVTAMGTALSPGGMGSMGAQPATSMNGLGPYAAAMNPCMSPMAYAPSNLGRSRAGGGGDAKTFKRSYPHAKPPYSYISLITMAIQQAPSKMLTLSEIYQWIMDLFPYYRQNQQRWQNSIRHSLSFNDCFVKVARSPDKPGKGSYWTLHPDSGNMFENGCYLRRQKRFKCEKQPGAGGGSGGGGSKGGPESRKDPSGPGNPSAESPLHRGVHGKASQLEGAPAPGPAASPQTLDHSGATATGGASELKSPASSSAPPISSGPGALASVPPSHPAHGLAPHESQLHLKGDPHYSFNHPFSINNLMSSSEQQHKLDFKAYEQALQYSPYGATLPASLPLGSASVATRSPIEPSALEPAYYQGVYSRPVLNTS
Notes: whole designed probe, mean of two concentrations, ends assumed
Constant ends, left off below: GTGAGCGGTGCCCATTGATGGGGAAC … TTTCACTGGGATCGTGGGGAC
| Strand | normalised bound fraction |
| --- | --- |
| ATCTTCCCCCTCTTCCTTGCCCCACCAGCTCACCTTCCCGGGTTATTTGCAGATAGGAAAATAAATAAAGCCGGCATTCGTTAACCCTCTTCTGGCGCAAACTGCTGTTTGCTCTGGATGAATTTCGTCAGCTTGGCGACGCCAGGCTCCGGGAGAGCAAAGCACCGTGTCAGGGCCATGATCCGGGGTGGCC | 0.358 ratio |
| TGCTGCTTATTCATGAATTTTCAAATGGAAATATCTCTCCCATTATTATCCCCTTCTTGTGAGTCAGGCCCCATCTTGCAAATTTGCAGCTGAGTAAATATACGGAACATTAGCAGCAATTAGATAATTGGTGCCCCGGATCAGCCCACCCACAGCTGTGAATGAATATGGGCTGCATGAGTGTCACCTGGTG | 0.339 ratio |
| ATTTTATTTGCTACAACAAGCAAGAAGGCTGAGGTTTATTGAGCAATAGCTGGGTTTTGTCAAACTTGCTTAAGGATTGCCTAAGACCAGCAAAATAATCTTGATAAAGTTGAAGAATGACCAGTTTTCCACTCTGCTGTGTTTGGAGGCTGACGAAACTGTCATTGACAAAATTGCCCTGATGGGACTGTTT | -0.0419 ratio |
| GGAGCAATGCCGGCTGGTGGCCTGGCCGCTCCGCCCCTTCCCTACCCCTCGCGGAGGGCCCGCCCCCTGCCCCGCGCCGGCTAGCGGAGGAGAGTAATTTCAACAGGAGCGCAAAATGGCGGAACCGCCGAGCCCCGTGCACTGTGTCGCTGCCGCGGCCCCCACCGCCACCGTCTCGGAGAAAGAACCGTTT | -0.0227 ratio |
| TTTCAGTGTTCACATTTCCCGTTAAGAAAAAAAAACTAATTTTTTACATGCATCATCATTAATTAGTGTAGTTTAATTAGTGTTTAGCTAAAAAGTAAACAGGGACCTAAATTAAGTTTGTTAGACAGTGCTAGAATTTACTGGGCTCCAGTAAATTTCACCTGGGTTTCAGGCAGGAAGAAAGTAAGGATGT | 0.243 ratio |
| TTTACTTGTTTCTTTACATCACAGATATTTTGTTGAAAACTATTAAGATAGTATTTCTAGAATATAATAAAACATTCAGAATAGCATTGCTAAGCAATTTCACTGTGCCATGATTATGTTTTTTTGCAATGTGTATGCAATTGCTTTATTTTACATTAGGAAATAGACAAAATGCATCTATTCATTTTTCTTT | 0.0329 ratio |
| ACTTCCACAAGGGAAGATAATGATAAAACATTAATAAAAATATCTATGAAGATGAGGACACAATAGAAAGCACAAGTTACATTGGGAAAAAGAGTCAACAGATACAACAAGATAATTCACATCCCAATAATTAAGGGTAATAAAGCAATATGAAAGAGGTAAGTATGCTTAAAATGTTTATTGACCAAAAGAA | 0.232 ratio |
| GCCGGAAATTACCCACAATCTCTGTTTTGGAAGTAATTAATCTTCGAATGTAGGAGCCCCTTTGTGGTGGAAAGCGCACGCTGACACTTTTGTGTAATCTCCCAGCTTAGCATATTGACAAACTGGTGGCTGTTACTTTGATCCCGGGCTGCCGGCTCTGAAAAGGCAAGCCAGCTCCGGGCTGCCCCACCGG | 0.0168 ratio |

Some of these lines once more (sample 1):
| Strand | RBNS enrichment (R) |
| --- | --- |
| CACCGAGUCACCUGGUGAGCCUCAGGCUGGCACACCGAAGUUGUGCCGUGCUUACGUUAUUUAUUAGCUGUAGCCAUUUCUGUCUUGGCUCUCACUUCCUCUGCCCUUCC | 0.419 |
| CCUGAAGGGUCUACACCCUCGGCUCACCUAAGUGCCCUGUGCUGGUUGCCAGGCGCAGAGGGGAGGCCAGCCCUGCCCUCAGGACCUGCCUGACCUGCCAGUGAUGCCAA | 0.235 |
| UGCUACAUCCCUACCCCAAGGGGCUUGGUCAAGGUGCCUGUUCCUGGCUCUCUGGCUGCAUGUGAUAAGCCAUGCUCCCCUCCCCUGCCUUUCUUCACAUUCCCACUCCC | 7.8 |
| ACCUAAAUGAAUUUCAUGAUUAGAGGUGCUCCCACCUGCCAAAUAAUCCCGCCACAAAUAUGCAAAUAUUGCAAAAUCAAAAAUAAUUCUGAAAUUAUUCUGAAACACUU | 0.552 |
| AAGUUGGGCUCAUCUUCCAGGGAGCAAACCUAAAGCUGGCAGUCAGCCGCCCUGGCUAGAGGCCUGCAGUGGAUGAGCGCAAAGUGCCCGGCCACAGCCCCCUCCCUUUA | 0.21 |
| UUCCAUUUUUUCUUACAAUUCUUCAGGGAACUUACCUGCAUUAAGUGAGGUUAAAUGCAUUCAGGAGGUUGUUUGUUUCUUCUAUCUAGUUUUAGAAUAAUAUUUCUUCG | 0.55 |
| AAACAGCGAUUUAAAUUGUAUUGAACAGGGCAUAUAAAAUGCAUUCUGUACCCUGAUCUGGCAUAUAGCUUCAAAACUGCAGUGGCGAGUGUCCAUCUCUUAGUUAGCUA | 0.298 |
| GCAAAGUUUGUCUUGACAGUUGAAGGCCUCGCUUAGUUGUACUGGAUUCUCAGGGAGCCCUCUGUGGCCUUUUGCUUUGCGUGCUGUUUCCCUUGUACCAGAGGGCGGCA | 0.487 |
| AAUUUAAUGUUUUGUAGUGAUGAAUAUGAAAAUGCCUGUCAUCUUUAGAUCAUUGAAAGGUUAACUAACAUGAGAAUUUCAGAGCAAAUUCCAAUACUCUUUUAAAAAGC | 0.941 |
| UUGCUUUUGAUCUUGUCAAAAAACUGAAUAGACCCCAGUUUCGGGAAGGUGUGUGAGCAGUGCCAUGACUCUGCCCCUUACCUAAUCCCACAUCUCUCUAAUGAUAAGAC | 0.641 |
| UACACUGAGGCUUUAAAAACACAAGGUCCCCCAAGGCUUCCUAGAAAUUGAAAUCUUUGCCUAGGCAGAGAAAUUGACCUAUGGUGGCUUAUUUUAGUCUUUUAUAAAUA | 0.235 |
